Measurements collected from several papers.
Compare with care: the assays were run in different laboratories.
Cell line: human red blood cells

| Compound | test | test system | conditions | scale | quantity | value |
| --- | --- | --- | --- | --- | --- | --- |
| CC(C)C[C@@H]1NC(=O)[C@H](CCCCN)NC(=O)CSC[C@@H]2NC(=O)[C@H](CC(C)C)NC(=O)[C@H](CC(C)C)NC(=O)[C@H](CCCCN)NC(=O)[C@H](CCCCNC(=O)[C@H](CCCCN)NC1=O)NC(=O)[C@H](CCCCN)NC(=O)[C@H](CC(C)C)NC(=O)[C@H](CCCCN)NC(=O)CSC[C@@H](C(=O)N[C@@H](CCCCN)C(N)=O)NC(=O)[C@H](CCCCN)NC(=O)[C@H](CC(C)C)NC(=O)[C@H](CC(C)C)NC2=O | – | – | 4 h, pH 7.4, room temperature | – | minimal haemolytic concentration | 2000 µg/mL |
| CC[C@H](C)[C@H](NC(=O)[C@H](CCCCN)NC(=O)[C@H](CS)NC(=O)[C@H](CC(N)=O)NC(=O)[C@H](C)NC(=O)[C@H](CCCNC(=N)N)NC(=O)[C@H](CCCNC(=N)N)NC(=O)[C@H](CC(N)=O)NC(=O)[C@H](CCCNC(=N)N)NC(=O)[C@@H](NC(=O)[C@H](CCCNC(=N)N)NC(=O)[C@H](CS)NC(=O)[C@H](CO)NC(=O)[C@@H](NC(=O)[C@H](CCC(N)=O)NC(=O)[C@H](CS)NC(=O)[C@H](CCCCN)NC(=O)[C@@H](N)CCCNC(=N)N)[C@@H](C)CC)[C@@H](C)CC)C(=O)N[C@@H](CO)C(=O)N[C@@H](CS)C(=O)N[C@@H](CC(N)=O)C(=O)O | – | – | 128 µg/mL, 3 h, 37 °C | baseline: Triton X-100 | hemolysis | 1.6% |
| CC(C)C[C@@H]1NC(=O)[C@H](CC(C)C)NC(=O)[C@H](CCCCN)NC(=O)CSC[C@@H](C(=O)N[C@@H](CCCCN)C(N)=O)NC(=O)[C@H](CCCCN)NC(=O)[C@H](CC(C)C)NC(=O)[C@H](CCCCN)NC(=O)[C@@H]2CSCC(=O)N[C@@H](CCCCN)C(=O)N[C@@H](CC(C)C)C(=O)N[C@@H](CC(C)C)C(=O)N[C@@H](CCCCNC1=O)C(=O)N[C@@H](CCCCN)C(=O)N[C@@H](CC(C)C)C(=O)N[C@@H](CC(C)C)C(=O)N2 | – | – | 4 h, pH 7.4, room temperature | – | minimal haemolytic concentration | 250 µg/mL |
| CC[C@H](C)[C@H](NC(=O)[C@H](CCCCN)NC(=O)[C@H](CCCCN)NC(=O)[C@H](Cc1ccccc1)NC(=O)[C@H](CC(C)C)NC(=O)[C@H](CCCCN)NC(=O)[C@H](Cc1c[nH]c2ccccc12)NC(=O)[C@@H](CCCCN)NC(C)=O)C(=O)NCC(=O)N[C@@H](C)C(=O)N[C@H](C(=O)N[C@@H](CC(C)C)C(=O)N[C@H](CCCCN)C(=O)N[C@H](C(=O)N[C@@H](CC(C)C)C(N)=O)C(C)C)C(C)C | – | – | 64 µM, 1 h, 37 °C | baseline: Triton X-100 | hemolysis | ~25% |
| CC[C@H](C)[C@H](NC(=O)[C@H](Cc1ccccc1)NC(=O)[C@H](CC(=O)O)NC(=O)[C@H](CCCCN)NC(=O)[C@H](C)NC(=O)[C@H](CCCCN)NC(=O)[C@H](CC(N)=O)NC(=O)[C@H](CC(C)C)NC(=O)[C@H](Cc1c[nH]c2ccccc12)NC(=O)[C@H](CCC(=O)O)NC(=O)[C@H](CCCCN)NC(=O)[C@H](Cc1c[nH]c2ccccc12)NC(=O)CNC(=O)[C@H](C)N)C(=O)N[C@@H](CCCCN)C(=O)N[C@@H](CCC(=O)O)C(=O)N[C@@H](CCCCN)C(=O)NCC(=O)N[C@@H](CC(C)C)C(=O)NCC(=O)N[C@@H](CCSC)C(=O)N[C@@H](CC(C)C)C(=O)N[C@@H](CO)C(=O)N[C@@H](C)C(=O)N[C@@H](C)C(=O)N[C@@H](C)C(=O)N[C@@H](CC(N)=O)C(=O)N[C@@H](C)C(=O)N[C@@H](C)C(=O)N[C@@H](CC(C)C)C(=O)N[C@@H](CC(N)=O)C(=O)O | – | – | 1 h | – | HC50 | > 100 µM |
| CC[C@H](C)[C@H](NC(=O)[C@H](CCCCN)NC(=O)[C@H](CS)NC(=O)[C@H](CC(N)=O)NC(=O)[C@H](C)NC(=O)[C@H](CCCNC(=N)N)NC(=O)[C@H](CCCNC(=N)N)NC(=O)[C@H](CC(N)=O)NC(=O)[C@H](CCCNC(=N)N)NC(=O)[C@@H](NC(=O)[C@H](CCCNC(=N)N)NC(=O)[C@H](CS)NC(=O)[C@H](CO)NC(=O)[C@@H](NC(=O)[C@@H](NC(=O)[C@H](CS)NC(=O)[C@H](CCCCN)NC(=O)[C@@H](N)CCCNC(=N)N)C(C)C)[C@@H](C)CC)[C@@H](C)CC)C(=O)N[C@@H](CC(C)C)C(=O)N[C@@H](CS)C(=O)N[C@@H](CC(N)=O)C(=O)O | – | – | 128 µg/mL, 3 h, 37 °C | baseline: Triton X-100 | hemolysis | 0.62% |
| CC[C@H](C)[C@H](NC(=O)[C@H](CCCN)NC(=O)[C@H](CC(N)=O)NC(=O)[C@H](Cc1c[nH]c2ccccc12)NC(=O)[C@H](Cc1ccccc1)NC(=O)[C@H](CCCN)NC(=O)[C@H](CCCNC(=N)N)NC(=O)[C@H](CC(C)C)NC(=O)[C@H](Cc1c[nH]c2ccccc12)NC(=O)[C@H](CCCN)NC(=O)[C@H](CCCNC(=N)N)NC(=O)[C@H](CC(C)C)NC(=O)CNC(C)=O)C(=O)N[C@@H](CCCN)C(=O)N[C@@H](CCCNC(=N)N)C(N)=O | – | 5 % erythrocyte suspension | 1 h, 37 °C | – | HC50 | 184 µM |
| C[C@H](NC(=O)[C@H](CCCNC(=N)N)NC(=O)[C@H](CCCNC(=N)N)NC(=O)[C@@H]1CCCN1C(=O)CNC(=O)[C@H](CCCNC(=N)N)NC(=O)[C@H](CCCNC(=N)N)NC(=O)CN)C(=O)N[C@@H](CC(N)=O)C(=O)N[C@@H](CCC(N)=O)C(=O)N[C@@H](CC(N)=O)C(=O)NCC(=O)N[C@H](C(=O)N[C@@H](CCCNC(=N)N)C(=O)N[C@@H](CCCNC(=N)N)C(=O)N[C@@H](CCCNC(=N)N)C(=O)N[C@@H](CCCNC(=N)N)C(=O)N[C@@H](CCCNC(=N)N)C(=O)N[C@@H](CCCNC(=N)N)C(=O)N[C@H](C(N)=O)[C@@H](C)O)[C@@H](C)O | – | – | 24 h, pH 7.4, 37 °C, 0.25% v/v erythrocytes | – | HC50 | > 100 µM |
| CC[C@H](C)[C@H](NC(=O)[C@H](CCCCN)NC(=O)[C@H](CC(N)=O)NC(=O)[C@H](CC(C)C)NC(=O)[C@H](Cc1ccccc1)NC(=O)[C@H](CCCCN)NC(=O)[C@H](CCCCNC(=N)N)NC(=O)[C@H](CC(C)C)NC(=O)[C@H](CC(C)C)NC(=O)[C@H](CCCCN)NC(=O)[C@H](CCCCNC(=N)N)NC(=O)[C@H](CC(C)C)NC(=O)CNC(C)=O)C(=O)N[C@@H](CCCCN)C(=O)N[C@@H](CCCCNC(=N)N)C(N)=O | – | 5 % erythrocyte suspension | 1 h, 37 °C | – | HC50 | 452 µM |
| CC[C@H](C)[C@H](NC(=O)[C@H](CCCCN)NC(=O)[C@H](CCCCN)NC(=O)[C@H](Cc1ccccc1)NC(=O)[C@H](CC(C)C)NC(=O)[C@@H](CCCCN)NC(=O)[C@H](Cc1c[nH]c2ccccc12)NC(=O)[C@H](CCCCN)NC(C)=O)C(=O)NCC(=O)N[C@@H](C)C(=O)N[C@H](C(=O)N[C@@H](CC(C)C)C(=O)N[C@@H](CCCCN)C(=O)N[C@H](CCCCN)C(=O)N[C@@H](CC(C)C)C(N)=O)C(C)C | – | – | 64 µM, 1 h, 37 °C | baseline: Triton X-100 | hemolysis | < 6% |
| N=C(N)NCCC[C@H](NC(=O)[C@@H](N)CCCCN)C(=O)N[C@@H](Cc1c[nH]c2ccccc12)C(=O)N[C@@H](Cc1ccc(-c2ccccc2)cc1)C(=O)N[C@@H](CCC(N)=O)C(=O)N[C@@H](Cc1c[nH]c2ccccc12)C(=O)N[C@@H](Cc1ccc(-c2ccccc2)cc1)C(=O)N[C@@H](CCCCN)C(N)=O | haemolysis | – | 1 h, 37 °C | – | HC10 | 15 µM |
| CC[C@H](C)[C@H](NC(=O)[C@H](CCCNC(=N)N)NC(=O)[C@H](CCCNC(=N)N)NC(=O)[C@H](CCCNC(=N)N)NC(=O)[C@@H](NC(=O)[C@@H](NC(=O)[C@H](C)NC(=O)[C@H](CCCNC(=N)N)NC(=O)[C@H](CCCNC(=N)N)NC(=O)[C@H](CCCNC(=N)N)NC(=O)[C@@H]1CCCN1C(=O)[C@@H](N)CCCNC(=N)N)[C@@H](C)O)[C@@H](C)O)C(=O)N[C@H](C(=O)N[C@H](C(=O)NCC(=O)N[C@H](C(=O)N[C@@H](CCCNC(=N)N)C(=O)N[C@@H](CCCNC(=N)N)C(=O)N[C@@H](CCCNC(=N)N)C(=O)N[C@@H](CCCNC(=N)N)C(N)=O)[C@@H](C)O)[C@@H](C)O)[C@@H](C)O | – | – | 24 h, pH 7.4, 37 °C, 0.25% v/v erythrocytes | – | HC50 | > 100 µM |
| CC[C@H](C)[C@H](NC(=O)[C@H](CCCCN)NC(=O)[C@H](CS)NC(=O)[C@H](CC(N)=O)NC(=O)[C@H](C)NC(=O)[C@H](CCCNC(=N)N)NC(=O)[C@H](CCCNC(=N)N)NC(=O)[C@H](CC(N)=O)NC(=O)[C@H](CCCNC(=N)N)NC(=O)[C@H](CCCNC(=N)N)NC(=O)[C@H](C)NC(=O)[C@H](CS)NC(=O)[C@H](CO)NC(=O)[C@@H](NC(=O)[C@@H](NC(=O)[C@H](CS)NC(=O)[C@H](CCCCN)NC(=O)[C@@H](N)CCCNC(=N)N)C(C)C)[C@@H](C)CC)C(=O)N[C@@H](CC(C)C)C(=O)N[C@@H](CS)C(=O)N[C@@H](CC(N)=O)C(=O)O | – | – | 128 µg/mL, 3 h, 37 °C | baseline: Triton X-100 | hemolysis | -0.15% |
| CC(C)C[C@H](NC(=O)[C@H](Cc1ccccc1)NC(=O)[C@H](CCCNC(=N)N)NC(=O)[C@H](CCCCN)NC(=O)[C@H](Cc1ccc(-c2ccccc2)cc1)NC(=O)[C@@H](N)CCCNC(=N)N)C(=O)N[C@@H](CCCNC(=N)N)C(=O)N[C@@H](CC(N)=O)C(=O)N[C@@H](Cc1ccc(-c2ccccc2)cc1)C(=O)N[C@H](C(N)=O)C(C)C | haemolysis | – | 1 h, 37 °C | – | HC50 | ~30 µM |
